{"data": "Experimental data gathered from unrelated publications", "note": "Each numbered part is a random draw from the data of one study; scales do not carry over between parts. “And” joins repeats or separate records; there may be more than shown.", "UniProt P29376, sequence (whole entry, looked up)": "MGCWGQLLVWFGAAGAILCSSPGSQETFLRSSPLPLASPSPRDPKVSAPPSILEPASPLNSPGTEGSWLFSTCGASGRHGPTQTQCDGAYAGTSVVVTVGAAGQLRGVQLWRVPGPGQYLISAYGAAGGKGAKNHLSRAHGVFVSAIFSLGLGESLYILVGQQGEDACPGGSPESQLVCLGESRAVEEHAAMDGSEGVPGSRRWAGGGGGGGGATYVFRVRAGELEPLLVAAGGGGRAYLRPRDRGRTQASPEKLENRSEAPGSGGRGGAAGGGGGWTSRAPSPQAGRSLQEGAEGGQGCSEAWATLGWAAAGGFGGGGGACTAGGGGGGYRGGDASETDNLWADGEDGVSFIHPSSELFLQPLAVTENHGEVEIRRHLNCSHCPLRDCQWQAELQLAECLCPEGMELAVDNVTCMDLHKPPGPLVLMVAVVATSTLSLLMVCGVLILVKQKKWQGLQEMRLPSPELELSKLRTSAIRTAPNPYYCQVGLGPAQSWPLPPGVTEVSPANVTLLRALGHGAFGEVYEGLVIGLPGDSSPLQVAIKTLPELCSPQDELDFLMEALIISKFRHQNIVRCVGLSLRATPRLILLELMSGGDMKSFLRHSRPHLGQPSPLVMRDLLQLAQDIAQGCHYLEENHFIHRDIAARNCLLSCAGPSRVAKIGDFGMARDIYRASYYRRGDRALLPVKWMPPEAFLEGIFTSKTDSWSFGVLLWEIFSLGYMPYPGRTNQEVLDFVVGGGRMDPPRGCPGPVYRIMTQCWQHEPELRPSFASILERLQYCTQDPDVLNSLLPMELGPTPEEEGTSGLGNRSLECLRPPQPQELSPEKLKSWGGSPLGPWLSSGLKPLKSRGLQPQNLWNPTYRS", "UniProt Q8N5S9, sequence (whole entry, looked up)": "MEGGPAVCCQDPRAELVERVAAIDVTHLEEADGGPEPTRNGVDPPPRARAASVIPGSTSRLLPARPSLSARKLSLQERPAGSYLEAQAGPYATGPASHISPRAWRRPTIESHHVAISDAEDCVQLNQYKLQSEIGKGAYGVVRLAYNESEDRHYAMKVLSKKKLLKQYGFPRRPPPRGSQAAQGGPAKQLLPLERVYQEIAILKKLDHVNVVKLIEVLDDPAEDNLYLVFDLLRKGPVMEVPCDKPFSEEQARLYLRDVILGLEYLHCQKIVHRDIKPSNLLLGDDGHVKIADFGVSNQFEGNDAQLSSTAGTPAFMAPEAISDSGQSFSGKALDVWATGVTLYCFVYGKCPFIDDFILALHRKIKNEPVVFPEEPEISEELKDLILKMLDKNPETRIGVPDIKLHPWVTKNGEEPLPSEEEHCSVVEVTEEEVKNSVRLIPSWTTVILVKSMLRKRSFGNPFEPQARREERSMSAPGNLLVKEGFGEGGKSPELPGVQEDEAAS", "UniProt Q9BQI3, sequence (whole entry, looked up)": "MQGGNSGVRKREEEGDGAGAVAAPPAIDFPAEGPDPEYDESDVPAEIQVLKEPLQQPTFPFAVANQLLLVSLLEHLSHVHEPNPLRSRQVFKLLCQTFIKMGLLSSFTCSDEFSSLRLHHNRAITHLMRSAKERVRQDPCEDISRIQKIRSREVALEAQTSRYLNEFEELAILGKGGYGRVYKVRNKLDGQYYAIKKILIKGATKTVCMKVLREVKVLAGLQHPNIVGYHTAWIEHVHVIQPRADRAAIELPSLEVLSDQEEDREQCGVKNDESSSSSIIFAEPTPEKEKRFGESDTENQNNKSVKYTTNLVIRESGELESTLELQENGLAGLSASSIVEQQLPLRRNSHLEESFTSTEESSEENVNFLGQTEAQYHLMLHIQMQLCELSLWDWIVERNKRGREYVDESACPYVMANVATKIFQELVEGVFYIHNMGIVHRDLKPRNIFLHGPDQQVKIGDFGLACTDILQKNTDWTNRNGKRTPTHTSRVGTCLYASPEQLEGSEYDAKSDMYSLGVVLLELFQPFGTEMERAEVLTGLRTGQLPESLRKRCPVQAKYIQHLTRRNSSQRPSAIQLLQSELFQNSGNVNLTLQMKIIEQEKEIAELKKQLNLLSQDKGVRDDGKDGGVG", "UniProt Q16584, sequence (whole entry, looked up)": "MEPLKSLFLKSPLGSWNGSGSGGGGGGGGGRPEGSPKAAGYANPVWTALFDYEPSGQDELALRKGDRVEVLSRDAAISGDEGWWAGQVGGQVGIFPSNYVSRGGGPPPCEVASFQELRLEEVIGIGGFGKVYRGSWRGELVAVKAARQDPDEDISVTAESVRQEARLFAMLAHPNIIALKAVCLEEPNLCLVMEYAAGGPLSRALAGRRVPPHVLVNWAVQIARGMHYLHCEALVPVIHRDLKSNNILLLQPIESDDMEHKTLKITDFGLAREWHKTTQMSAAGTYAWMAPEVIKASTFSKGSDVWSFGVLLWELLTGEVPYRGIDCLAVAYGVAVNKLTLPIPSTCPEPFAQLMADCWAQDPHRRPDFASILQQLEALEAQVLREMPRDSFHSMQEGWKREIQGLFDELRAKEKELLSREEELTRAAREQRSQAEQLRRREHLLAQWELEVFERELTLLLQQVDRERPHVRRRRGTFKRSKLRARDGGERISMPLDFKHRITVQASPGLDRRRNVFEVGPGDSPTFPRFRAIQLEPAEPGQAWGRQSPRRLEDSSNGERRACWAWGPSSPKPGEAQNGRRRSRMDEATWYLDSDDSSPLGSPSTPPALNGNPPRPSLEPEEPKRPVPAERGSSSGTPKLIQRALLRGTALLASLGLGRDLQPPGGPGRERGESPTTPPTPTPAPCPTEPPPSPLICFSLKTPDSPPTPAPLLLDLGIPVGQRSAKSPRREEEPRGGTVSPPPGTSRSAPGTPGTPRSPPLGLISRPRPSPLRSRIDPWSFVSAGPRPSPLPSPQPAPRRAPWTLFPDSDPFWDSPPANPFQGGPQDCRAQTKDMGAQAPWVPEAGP", "UniProt P08069, sequence (whole entry, looked up)": "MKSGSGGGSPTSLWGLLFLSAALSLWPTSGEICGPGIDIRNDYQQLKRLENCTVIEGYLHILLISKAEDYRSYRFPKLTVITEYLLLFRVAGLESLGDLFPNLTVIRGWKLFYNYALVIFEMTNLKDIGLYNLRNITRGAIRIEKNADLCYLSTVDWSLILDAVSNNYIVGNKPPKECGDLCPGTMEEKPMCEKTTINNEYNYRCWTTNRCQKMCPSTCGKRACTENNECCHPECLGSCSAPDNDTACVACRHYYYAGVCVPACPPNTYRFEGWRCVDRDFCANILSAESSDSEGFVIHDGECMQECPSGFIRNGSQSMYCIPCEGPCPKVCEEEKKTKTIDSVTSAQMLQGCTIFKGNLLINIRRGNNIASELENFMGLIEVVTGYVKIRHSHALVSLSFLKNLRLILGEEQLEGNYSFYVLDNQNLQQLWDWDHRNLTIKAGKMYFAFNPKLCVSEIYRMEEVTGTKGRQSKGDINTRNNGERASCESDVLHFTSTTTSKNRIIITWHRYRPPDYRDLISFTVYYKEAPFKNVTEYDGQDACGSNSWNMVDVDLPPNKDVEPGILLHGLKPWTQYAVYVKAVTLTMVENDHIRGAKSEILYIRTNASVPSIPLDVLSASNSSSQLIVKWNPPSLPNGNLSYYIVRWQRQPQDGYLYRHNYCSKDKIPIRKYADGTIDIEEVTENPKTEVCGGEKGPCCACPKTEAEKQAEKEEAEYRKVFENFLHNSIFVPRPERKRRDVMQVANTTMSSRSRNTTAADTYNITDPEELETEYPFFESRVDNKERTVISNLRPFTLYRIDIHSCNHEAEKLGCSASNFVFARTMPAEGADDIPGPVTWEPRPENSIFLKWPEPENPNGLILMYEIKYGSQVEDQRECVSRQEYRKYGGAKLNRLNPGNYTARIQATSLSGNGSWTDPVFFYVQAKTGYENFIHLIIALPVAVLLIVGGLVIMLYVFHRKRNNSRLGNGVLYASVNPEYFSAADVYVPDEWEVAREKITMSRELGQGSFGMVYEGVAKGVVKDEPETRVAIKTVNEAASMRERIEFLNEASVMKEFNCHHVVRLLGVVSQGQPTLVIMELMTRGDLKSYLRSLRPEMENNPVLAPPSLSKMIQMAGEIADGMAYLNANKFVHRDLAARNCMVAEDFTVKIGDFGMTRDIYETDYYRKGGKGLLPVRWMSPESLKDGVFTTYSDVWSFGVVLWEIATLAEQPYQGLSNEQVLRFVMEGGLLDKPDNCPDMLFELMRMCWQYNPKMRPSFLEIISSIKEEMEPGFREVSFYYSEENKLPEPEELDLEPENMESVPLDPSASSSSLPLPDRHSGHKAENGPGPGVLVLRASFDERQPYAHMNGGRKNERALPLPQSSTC", "UniProt Q16620, sequence (whole entry, looked up)": "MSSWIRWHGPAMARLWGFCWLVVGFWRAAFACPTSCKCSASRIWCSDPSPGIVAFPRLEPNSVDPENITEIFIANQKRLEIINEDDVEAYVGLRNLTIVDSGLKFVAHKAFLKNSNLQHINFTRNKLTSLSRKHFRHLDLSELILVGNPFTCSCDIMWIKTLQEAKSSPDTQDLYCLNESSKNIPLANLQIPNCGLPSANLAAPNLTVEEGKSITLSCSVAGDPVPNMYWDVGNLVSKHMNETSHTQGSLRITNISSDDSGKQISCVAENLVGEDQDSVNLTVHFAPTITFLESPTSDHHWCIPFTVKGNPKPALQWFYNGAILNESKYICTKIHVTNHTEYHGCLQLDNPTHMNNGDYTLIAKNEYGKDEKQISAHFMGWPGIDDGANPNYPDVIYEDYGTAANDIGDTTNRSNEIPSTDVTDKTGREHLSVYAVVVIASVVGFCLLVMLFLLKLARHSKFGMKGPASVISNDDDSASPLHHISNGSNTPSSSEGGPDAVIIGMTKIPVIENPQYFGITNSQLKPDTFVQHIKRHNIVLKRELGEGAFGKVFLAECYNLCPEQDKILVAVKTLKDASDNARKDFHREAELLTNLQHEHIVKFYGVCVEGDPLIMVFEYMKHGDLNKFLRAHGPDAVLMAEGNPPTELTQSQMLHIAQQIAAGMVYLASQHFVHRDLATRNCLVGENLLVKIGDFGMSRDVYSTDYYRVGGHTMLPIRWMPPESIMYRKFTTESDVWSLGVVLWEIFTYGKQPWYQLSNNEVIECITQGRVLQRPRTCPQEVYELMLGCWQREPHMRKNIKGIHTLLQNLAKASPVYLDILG"}
{"data": "Sample 1", "SMILES": "COc1ccc2[nH]c3c4[nH]c5ccc(OC)cc5c4c4c(c3c2c1)C(=O)NC4=O", "tested at": "1 µM"}
{"target": "Serine/threonine-protein kinase SIK3 (SIK3, Homo sapiens, UniProt Q9Y2K2)", "test": "binding, competition with immobilised ligand", "remaining binding [%]": 56}
{"target": "MAP kinase-interacting serine/threonine-protein kinase 2 (MKNK2, Homo sapiens, UniProt Q9HBH9)", "test": "binding, competition with immobilised ligand", "remaining binding [%]": 54}
{"target": "MAP/microtubule affinity-regulating kinase 3 (MARK3, Homo sapiens, UniProt P27448)", "test": "binding", "remaining binding [%]": 83}
{"target": "Tyrosine-protein kinase JAK2, JH1 (JAK2, Homo sapiens, UniProt O60674)", "test": "cell-free assay, competition with immobilised ligand", "remaining binding [%]": 84}
{"target": "Bone morphogenetic protein receptor type-2 (BMPR2, Homo sapiens, UniProt Q13873)", "test": "binding", "remaining binding [%]": 93}
{"target": "Calcium/calmodulin-dependent protein kinase kinase 1 (CAMKK1, Homo sapiens, UniProt Q8N5S9)", "test": "binding", "remaining binding [%]": 78}
{"data": "Sample 2", "organism": "Sarcocystis neurona", "read-out": "parasite growth", "tested at": "concentration not given", "notes": "first screen", "baseline": "untreated"}
{"SMILES": "CN1CCN(c2nc3cc(C(F)(F)F)ccc3n3cccc23)CC1", "log2 fold change": 0.12}
{"SMILES": "COc1ccccc1N1CCN(CCCNc2cc(=O)n(C)c(=O)n2C)CC1.Cl", "log2 fold change": 0.0135}
{"SMILES": "CC(C)C[C@H](NC(=O)[C@@H](COC(C)(C)C)NC(=O)[C@H](Cc1ccc(O)cc1)NC(=O)[C@H](CO)NC(=O)[C@H](Cc1c[nH]c2ccccc12)NC(=O)[C@H](Cc1cnc[nH]1)NC(=O)[C@@H]1CCC(=O)N1)C(=O)N[C@@H](CCCNC(=N)N)C(=O)N1CCC[C@H]1C(=O)NNC(N)=O", "log2 fold change": -0.09}
{"SMILES": "O=C(O)c1cc2ccccc2c(Cc2c(O)c(C(=O)O)cc3ccccc23)c1O.OCCOCCN1CCN(C(c2ccccc2)c2ccc(Cl)cc2)CC1", "log2 fold change": 0.21}
{"SMILES": "COc1ccc(C(=O)NCc2ccc(OCCN(C)C)cc2)cc1OC.Cl", "log2 fold change": 0.21}
{"data": "Sample 3", "Compound": "Cc1c[nH]c2nccc(Oc3c(F)cc(Nc4cc(Cl)nc(N)n4)cc3F)c12", "tested at": "0.1 µM"}
{"target": "Serine/threonine-protein kinase MRCK alpha (CDC42BPA, Homo sapiens, UniProt Q5VT25)", "test": "cell-free assay, competition with immobilised ligand", "remaining binding [%]": 98}
{"target": "Ephrin type-A receptor 3 (EPHA3, Homo sapiens, UniProt P29320)", "test": "cell-free assay, competition with immobilised ligand", "remaining binding [%]": 97}
{"target": "G protein-coupled receptor kinase 4 (GRK4, Homo sapiens, UniProt P32298)", "test": "cell-free assay, competition with immobilised ligand", "remaining binding [%]": 100}
{"target": "Ribosomal protein S6 kinase alpha-5, C-terminal kinase domain (RPS6KA5, Homo sapiens, UniProt O75582)", "test": "cell-free assay, competition with immobilised ligand", "remaining binding [%]": 93}
{"target": "BDNF/NT-3 growth factors receptor (NTRK2, Homo sapiens, UniProt Q16620)", "test": "cell-free assay, competition with immobilised ligand", "remaining binding [%]": 94}
{"target": "Ephrin type-B receptor 1 (EPHB1, Homo sapiens, UniProt P54762)", "test": "cell-free assay, competition with immobilised ligand", "remaining binding [%]": 86}
{"target": "Cyclin-dependent kinase-like 5 (CDKL5, Homo sapiens, UniProt O76039)", "test": "cell-free assay, competition with immobilised ligand", "remaining binding [%]": 73}
{"target": "Platelet-derived growth factor receptor alpha (PDGFRA, Homo sapiens, UniProt P16234)", "test": "cell-free assay, competition with immobilised ligand", "remaining binding [%]": 84}
{"target": "Tyrosine-protein kinase ABL1, phosphorylated (ABL1, Homo sapiens, UniProt P00519, F317L)", "test": "cell-free assay, competition with immobilised ligand", "remaining binding [%]": 74}
{"target": "Serine/threonine-protein kinase Nek6 (NEK6, Homo sapiens, UniProt Q9HC98)", "test": "cell-free assay, competition with immobilised ligand", "remaining binding [%]": 99}
{"target": "TGF-beta receptor type-2 (TGFBR2, Homo sapiens, UniProt P37173)", "test": "cell-free assay, competition with immobilised ligand", "remaining binding [%]": 100}
{"target": "Serine/threonine-protein kinase tousled-like 2 (TLK2, Homo sapiens, UniProt Q86UE8)", "test": "cell-free assay, competition with immobilised ligand", "remaining binding [%]": 95}
{"target": "Eukaryotic translation initiation factor 2-alpha kinase 1 (EIF2AK1, Homo sapiens, UniProt Q9BQI3)", "test": "cell-free assay, competition with immobilised ligand", "remaining binding [%]": 77}
{"target": "Leukocyte tyrosine kinase receptor (LTK, Homo sapiens, UniProt P29376)", "test": "cell-free assay, competition with immobilised ligand", "remaining binding [%]": 99}
{"target": "Serine/threonine-protein kinase TAO3 (TAOK3, Homo sapiens, UniProt Q9H2K8)", "test": "cell-free assay, competition with immobilised ligand", "remaining binding [%]": 100}
{"target": "Insulin-like growth factor 1 receptor (IGF1R, Homo sapiens, UniProt P08069)", "test": "cell-free assay, competition with immobilised ligand", "remaining binding [%]": 86}
{"target": "Phosphatidylinositol 4,5-bisphosphate 3-kinase catalytic subunit gamma isoform (PIK3CG, Homo sapiens, UniProt P48736)", "test": "cell-free assay, competition with immobilised ligand", "remaining binding [%]": 88}
{"target": "Ribosomal protein S6 kinase alpha-6, C-terminal kinase domain (RPS6KA6, Homo sapiens, UniProt Q9UK32)", "test": "cell-free assay, competition with immobilised ligand", "remaining binding [%]": 99}
{"target": "Serine/threonine-protein kinase PAK 3 (PAK3, Homo sapiens, UniProt O75914)", "test": "cell-free assay, competition with immobilised ligand", "remaining binding [%]": 86}
{"target": "Serine/threonine-protein kinase haspin (HASPIN, Homo sapiens, UniProt Q8TF76)", "test": "cell-free assay, competition with immobilised ligand", "remaining binding [%]": 61}
{"target": "Cyclin-dependent kinase 19 (CDK19, Homo sapiens, UniProt Q9BWU1)", "test": "competition binding", "remaining binding [%]": 80}
{"target": "Ribosomal protein S6 kinase alpha-4, C-terminal kinase domain (RPS6KA4, Homo sapiens, UniProt O75676)", "test": "cell-free assay, competition with immobilised ligand", "remaining binding [%]": 83}
{"target": "Interleukin-1 receptor-associated kinase 1 (IRAK1, Homo sapiens, UniProt P51617)", "test": "cell-free assay, competition with immobilised ligand", "remaining binding [%]": 90}
{"target": "Mitogen-activated protein kinase kinase kinase 11 (MAP3K11, Homo sapiens, UniProt Q16584)", "test": "cell-free assay, competition with immobilised ligand", "remaining binding [%]": 100}
{"target": "Mitogen-activated protein kinase 4 (MAPK4, Homo sapiens, UniProt P31152)", "test": "cell-free assay, competition with immobilised ligand", "remaining binding [%]": 81}
{"data": "Sample 4", "cell line": "mouse MPNST tumor cells", "technique": "high-content immunofluorescence imaging", "refers to": "nuclear SOX9", "tested at": "10 µM", "time": "12 h", "notes": "mean of 2 replicates", "baseline": "DMSO control", "direction": "higher = more nuclear SOX9"}
{"Compound": "CC(C)Oc1cccc(CC(=O)N2CCC[C@](CC[N+]34CCC(c5ccccc5)(CC3)CC4)(c3ccc(Cl)c(Cl)c3)C2)c1", "nuclear SOX9 intensity": "108 % of DMSO"}
{"Compound": "O=C(CCCCC(=O)Nc1c(I)cc(I)c(C(=O)O)c1I)Nc1c(I)cc(I)c(C(=O)O)c1I", "nuclear SOX9 intensity": "95.2 % of DMSO"}
{"Compound": "Cc1nc(NC(=O)N2CCCC2C(N)=O)sc1-c1csc(C(C)(C)C)n1 (stereo not drawn)", "nuclear SOX9 intensity": "60.7 % of DMSO"}
{"Compound": "CC(C)(C)NC(=O)CN1CCC(CNC(=O)c2cc(F)cc(Cl)c2)CC1", "nuclear SOX9 intensity": "99.8 % of DMSO"}
{"Compound": "CNC(=O)c1ccccc1Sc1ccc2c(/C=C/c3ccccn3)n[nH]c2c1", "nuclear SOX9 intensity": "154 % of DMSO"}
{"Compound": "CN(N=O)C(=O)NC1C(O)OC(CO)C(O)C1O (stereo not drawn)", "nuclear SOX9 intensity": "91.4 % of DMSO"}
{"data": "Sample 5", "Structure (SMILES)": "CC(C)n1cnc(-c2ccc(F)cc2)c1-c1ncc(C(=O)Nc2ccc(N3CCN(C)CC3)cc2)[nH]1"}
{"test": "phase 2a trial", "system": "patients with idiopathic pulmonary fibrosis", "setting": "30 mg once daily, endocrine disorders SOC, grade 3", "patients with TEAE [%]": 0}
{"test": "phase 2a trial", "system": "idiopathic pulmonary fibrosis patients", "setting": "oral, dose not given, ESR increased, grade 3, all arms", "patients with TEAE [%]": 0}
{"test": "refers to: nervous system disorders", "system": "idiopathic pulmonary fibrosis patients", "setting": "30 mg once daily", "patients with TEAE [%]": 0}
{"test": "phase 2a trial", "system": "idiopathic pulmonary fibrosis patients", "setting": "oral, 30 mg once daily, disc protrusion, grade 4", "patients with TEAE [%]": 0}
{"data": "Sample 6", "Compound": "CCOc1ccc(Nc2c3c(nc4ccccc24)CCC3)cc1", "organism": "Leishmania donovani", "strain": "DD8"}
{"test": "parasite viability, resazurin", "system": "promastigotes", "setting": "16.66 µM", "inhibition": "93% and 99% and 91% and 92% and 89% and 98% and 100%"}
{"test": "parasite killing", "system": "promastigotes", "setting": "1.66 µM, 96 h", "inhibition": "48% and 42% and 40%"}
{"test": "parasite killing", "system": "promastigotes", "setting": "6.66 µM, 96 h", "inhibition": "81% and 82% and 80%"}
{"test": "parasite killing", "system": "intracellular amastigotes", "setting": "2 µM, 24 h", "inhibition": "22% and 24% and 19%"}
{"test": "parasite killing", "system": "intracellular amastigotes", "setting": "0.4 µM, 96 h", "inhibition": "28% and 14% and 16%"}
{"note": "A few entries again (sample 6):"}
{"test": "parasite killing", "system": "promastigotes", "setting": "1.66 µM, 96 h", "inhibition": "48% and 42% and 40%"}
{"test": "parasite killing", "system": "promastigotes", "setting": "6.66 µM, 96 h", "inhibition": "81% and 82% and 80%"}
{"test": "parasite killing", "system": "intracellular amastigotes", "setting": "0.4 µM, 96 h", "inhibition": "28% and 14% and 16%"}
